Experimental data of several laboratories.
Compare with care: the assays were run in different laboratories.
Target: Serine/threonine-protein kinase SBK1 (SBK1, Homo sapiens, UniProt Q52WX2)

CNC1C[S+]2CC[S+]3CC[S+](C1)[Ru-4]321([N]=C=S)[n]2c3ccc(OC)cc3c3c4c(c5cc(F)c[n+]1c5c32)C(=O)NC4=O (stereo not shown)
remaining binding (KinomeScan; 0.1 µM; baseline: untreated): 92%

CC(C)=CC1OC(C)(C)C2C=C3C(=O)C(Cl)=CC(O)C3C3C(O)C4OC4C(=O)C132 (stereo not shown)
remaining binding (cell-free assay, competition with immobilised ligand; 10 µM): 67%

Nc1ncc2c(n1)-c1c([nH]c3ccc(C4=CCOCC4)cc13)CCC2
remaining binding (binding, competition with immobilised ligand; 1 µM): 91%

Nc1ncc(-c2cc(-c3cnn(CC(F)(F)F)c3)ncc2F)nc1C(=O)NC1CNCC(F)C1 (stereo not shown)
remaining activity (enzyme activity; 1 µM; baseline: DMSO control): 102%

CCN1CCN(Cc2ccc(C(=O)Nc3ccc(C)c(NCc4cnc5[nH]ccc5c4OC)c3)cc2C(F)(F)F)CC1
remaining binding (binding, competition with immobilised ligand; 1 µM): 68%

COc1cc(Nc2nc(C)cc(-c3cnn4nc(OC)ccc34)n2)cc(C(F)(F)F)c1
remaining binding (binding, competition with immobilised ligand; 1 µM): 87%

CN1CCN(Cc2ccc(-c3ccc(CO[C@H]4CCC[C@@H]4NC(=O)c4cc(-c5cnn(C)c5)cnc4N)cc3)cc2)CC1
inhibition (enzyme activity, inhibitor; 0.1 µM): 10%

CNC(=O)C[C@H](Cc1ccc(C#N)cc1)NC(=O)c1cc(-c2ccc(CN[C@H](C)c3ccc(C)cc3)o2)ccc1Cl
activity vs control (enzyme activity, inhibitor; 1 µM): 94%

COc1c(Cl)cccc1Nc1c(-c2ccncc2C#C[C@@]2(C)CCCN2C(=O)/C=C/CN(C)C)[nH]c2c1C(=O)NCC2
remaining binding (binding, competition with immobilised ligand; 3 µM): 94%

CCn1cc(C(=O)O)c(=O)c2c(N)c(F)c(NC3CCCCC3)cc21
inhibition (kinase activity; 0.1 µM, together with: ATP at Km): -16.1%

C=CC(=O)N1CCCC(n2c(=O)c3ncccc3n(Cc3ccc(Oc4ccccc4)cc3)c2=O)C1 (stereo not shown)
remaining binding (cell-free assay, competition with immobilised ligand; 1 µM): 49%

CNC(=O)C1CCN(c2cc(C)c(F)cc2NC(=O)c2ccc(-c3cc(O)ccc3C)c(C)c2)CC1
remaining binding (binding, competition with immobilised ligand; 1 µM): 91%

C=CC(=O)N1CCc2ccc(-n3c(=O)ccc4cnc5ccc(-c6cnn(C)c6)cc5c43)cc21
remaining binding (KINOMEscan; 1 µM; baseline: DMSO control): 42%

O=C(Cc1ccc(OCc2ccccc2)cc1)NC1(C(=O)O)CCN(C(=O)c2ccc(-c3cccc(Cl)c3)cc2)CC1
activity vs control (enzyme activity, inhibitor; 10 µM): 103%

Cc1ccc(-c2c(/C=C(\C#N)C(=O)NC(C)C)n(CCCO)c3ncnc(N)c23)cc1
remaining binding (cell-free assay, competition with immobilised ligand; 1 µM): 100%

COc1cc(Nc2nccc(-c3cnn4nc(OC)ccc34)n2)cc(C(F)(F)F)c1
remaining binding (binding, competition with immobilised ligand; 1 µM): 84%

CN1CC[C@@H](COc2cnc(C#N)cc2-c2ccn3nc(NC(=O)C4CC4)cc3c2)C1
inhibition (enzyme activity, inhibitor; 1 µM): 1%

Cc1cnc2nc1Nc1cccc(c1)COC/C=C/COCc1cc(ccc1OCCN1CCOCC1)N2
remaining binding (binding, competition with immobilised ligand; 0.1 µM): 94%

C=CC(=O)N1Cc2nc(-c3cc(-c4cc(Cl)cnc4Cl)c(F)cc3F)n(-c3ccncn3)c2C1
inhibition (cell-free assay, inhibitor; 1 µM): 1.4%

Excerpt of the above:
COc1cc(Nc2nc(C)cc(-c3cnn4nc(OC)ccc34)n2)cc(C(F)(F)F)c1
remaining binding (binding, competition with immobilised ligand; 1 µM): 87%

CN1CCN(Cc2ccc(-c3ccc(CO[C@H]4CCC[C@@H]4NC(=O)c4cc(-c5cnn(C)c5)cnc4N)cc3)cc2)CC1
inhibition (enzyme activity, inhibitor; 0.1 µM): 10%
